Measured values from different studies.
Each numbered part is a random draw from the data of one study; scales do not carry over between parts. Substitutions count along the parent as printed.

Sample 1
Target: Sal-like protein 4, full length isoform B (SALL4, Homo sapiens, UniProt Q9UJQ4-2, residues 1-616)
Method: universal PBM
Molecule type: double-stranded DNA, one strand shown
Matrix: in vitro
Concentration: not given
Setting: 8-mer, flanks averaged, mean of replicates
Reading: higher = stronger binding
Quantity: E-score
ACGAATAG: 0.0616
AACAGGAG: -0.0877
ACGATAAG: 0.111
CGAATGGA: -0.0651
CTAAGTAG: -0.0296
CTATTTCC: 0.175
CTTGCCCA: -0.0653
ACCTACCC: -0.345
AAGTTCTC: -0.0833
ACTTCTCG: 0.0294
AAGGGAGT: -0.156
ACTCATTA: 0.219
GGTCGAAC: -0.183
AGATGGTG: -0.0667
GAAGTCCC: -0.24
CCATGGGC: -0.392
AGAACCGC: -0.112
TCTCTAAA: 0.0971
GTACAAAC: 0.102
AGCTATTA: 0.238
AATGAGAC: -0.0884
CATTCGGC: -0.229
AGAATGTG: -0.0287
GCAGAGAA: -0.0393
CCAGTAAA: 0.182

Sample 2
Target: CCNB2, cyclin fold, Cln2 fusion (human)
Method: yeast growth competition, sequencing
Matrix: yeast
Setting: weak parent motif
Reference: not given
Reading: higher = stronger binding
Quantity: normalised enrichment score
Starting sequence: INSM1 docking peptide (human); PKAIRKLHFEDEV; partner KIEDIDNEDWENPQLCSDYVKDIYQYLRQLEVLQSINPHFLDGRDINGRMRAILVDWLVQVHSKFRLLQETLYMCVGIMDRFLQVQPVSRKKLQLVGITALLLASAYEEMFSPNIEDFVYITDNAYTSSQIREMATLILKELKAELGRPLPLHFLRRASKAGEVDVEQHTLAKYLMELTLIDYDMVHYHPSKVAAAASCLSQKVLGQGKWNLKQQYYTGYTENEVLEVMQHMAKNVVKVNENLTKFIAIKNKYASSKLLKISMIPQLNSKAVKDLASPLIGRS
F9N: 0.16
I4T: 0.265
K2E: 0.167
L7G: 0.157
E10S: 0.342
D11M: 0.286
E12R: 0.188
F9C: 0.0277
K2A: 0.116
D11A: 0.636
K6N: 0.163
R5A: 0.0139
E10D: -0.0558
I4C: 0.707
E10M: 0.334
R5E: -0.0492
K6V: 0.0997
I4Y: 0.0836
R5D: -0.479
D11I: 0.575
D11Y: 0.322
D11C: 0.585

Sample 3
Target: Histone acetyltransferase KAT6A, winged helix 2, GST fusion (KAT6A, Homo sapiens, UniProt Q92794, residues 85-181)
Method: protein binding microarray
Molecule type: double-stranded DNA, one strand shown
Matrix: in vitro
Concentration: not given
Setting: 8-mer, flanks averaged, mean of 2 arrays, mostly near background
Reference: not given
Reading: higher = stronger binding
Quantity: E-score
Construct (chain): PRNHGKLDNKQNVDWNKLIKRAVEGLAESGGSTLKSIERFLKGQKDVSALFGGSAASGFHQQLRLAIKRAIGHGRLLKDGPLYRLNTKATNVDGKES
ACCACGTA: -0.208
GATTAAAC: 0.108
ACGGATCT: 0.0117
GACCCCGA: 0.0667
AGTGATTG: -0.0772
CCACCAGG: 0.044
GAAAAATA: -0.102
CGATCATA: 0.0717
GCTCCGCA: 0.139
ACCTTGCT: 0.0227
CTGAGCAG: 0.0562
ACTCATTG: -0.123
CACTCGCG: 0.175
GCGGGTAA: -0.024
CCCGTACC: -0.0388
ACTTTTAC: 0.0193
CAATCCGC: 0.116
AGTTAGGC: 0.0285
CATCACAG: -0.161
AGACAACG: -0.0796
ACAGCTCG: 0.0941
AAAGTGCC: -0.0732
CTCTCTAA: -0.102

Sample 4
Target: Ras GTPase-activating protein-binding protein 1, RRM domain (G3BP1, Homo sapiens, UniProt Q13283)
Chain of UniProt Q13283 (whole entry, looked up): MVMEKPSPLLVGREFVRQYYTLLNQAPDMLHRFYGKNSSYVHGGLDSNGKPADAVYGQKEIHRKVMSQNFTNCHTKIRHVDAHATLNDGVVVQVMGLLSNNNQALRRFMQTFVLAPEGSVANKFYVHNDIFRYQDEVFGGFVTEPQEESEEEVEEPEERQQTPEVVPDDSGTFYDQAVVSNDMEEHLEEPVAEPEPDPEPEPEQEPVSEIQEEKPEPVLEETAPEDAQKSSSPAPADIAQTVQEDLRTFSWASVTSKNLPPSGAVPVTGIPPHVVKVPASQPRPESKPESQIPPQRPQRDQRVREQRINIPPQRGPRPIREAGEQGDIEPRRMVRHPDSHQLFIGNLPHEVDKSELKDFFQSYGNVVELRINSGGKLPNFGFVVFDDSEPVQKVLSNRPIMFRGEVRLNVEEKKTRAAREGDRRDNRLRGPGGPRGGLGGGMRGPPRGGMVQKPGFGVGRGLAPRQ
Method: RNA Bind-n-Seq
Molecule type: RNA
Matrix: in vitro
Concentration: 1 µM
Setting: whole 134-nt RNA, ends assumed
With: 150 mM KCl
Reference: input library
Reading: higher = stronger binding
Quantity: log2 enrichment
All sequences stand within: GGGAGUUCUACAGUCCGACGAUC … UGGAAUUCUCGGGUGUCAAGG
ACCAUGCAGGUGGGCAUCUUUGGGAAGUGGGGCAAGGGGAAAAUAGGGAGGGGGGUAACACUUUGGGAACAGGUGGUCCCAGGUCGUUUC: -0.165
UCCUGUGCUACACAUCGUAUGUACCGAAUCGGGGUUUUUUUGGGGUUUGGGGAAAGGGGAAAGUAUUAUGUUACGCCGUUCGGAUCUGCA: 0.624
UAAAUUCAUCUGAAAAUGGUGAGGACAGGCACAAACGCAAAGAAAGAAAGUCAUCAAGAGGCAGAAGUCACUCAAGAUCUAGGUCUCGUG: -0.288
UCCUCAAGUCCUGUGCUACACAUCGUAUGUACCGAAUCGGAGGUGGAAAGGAAAGUAUUAUGUUACGCCGUUCGGAUCUGCACUUCCAGC: -0.231
UCAAGUCCUGUGCUACACAUCGUAUGUACCGAAUCGGUUUGGGUUUGGGGUUUGGAAAGUAUUAUGUUACGCCGUUCGGAUCUGCACUUC: -0.272
CACAGACAACACGCACCCACACAGACACAGAGGGAAGGGGUUGGGAUGGGGACAGGGUGCACAGCAGGGCGGGGUAGGACCCGAGCCCCU: -0.442
CUCAAGUCCUGUGCUACACAUCGUAUGUACCGAAUCGGGGCCGGCCGGGCCGGAAAGUAUUAUGUUACGCCGUUCGGAUCUGCACUUCCA: -0.383
UUUGGUUAUGAACAGGAUUCGGAUUCACGUCUUGCCAACCAAUCGGGGGAGGAUCACUCCAGUGCCCAGGUCUCAGGAACCUCUGUCUUG: -0.0402
AGUCCUGUGCUACACAUCGUAUGUACCGAAUCGGCCCCCGGGCCCCCGGGGCCCCCGGAAAGUAUUAUGUUACGCCGUUCGGAUCUGCAC: -0.559
CACAGACAACACGCACCCACACAGACACAGAGGGAAGGGGUUGGGAUGGGGACAGGGUGCACAGCAGGGCGGGGUAGGACCCCGGCCCCU: -0.491
CCUGUGCUACACAUCGUAUGUACCGAAUCGGGGAGGGGUUUUUUUGGGGAAAAAAAGGGGAAAGUAUUAUGUUACGCCGUUCGGAUCUGC: 0.364
CUCAAGUCCUGUGCUACACAUCGUAUGUACCGAAUCGGGGUUGGUUGGUUGGGGAAAGUAUUAUGUUACGCCGUUCGGAUCUGCACUUCC: -0.254
CAAGUCCUGUGCUACACAUCGUAUGUACCGAAUCGGGUUUGGGAAAAAGGGUGGGAAAGUAUUAUGUUACGCCGUUCGGAUCUGCACUUC: 0.844
CUCAGACAACACGCACCCACACAGACACAGAGGGAAGGGGUUGGGAUGGGGACAGGGUGCACAGCAGGGCGGGGUAGGACCCCAGCCCCU: -0.123

Sample 5
Target: TAR DNA-binding protein 43, full length, His tag (TARDBP, Homo sapiens, UniProt Q13148, residues 1-414)
Method: RNA Bind-n-Seq
Molecule type: RNA
Matrix: in vitro
Concentration: 20 nM
Setting: 6-mer, flanks averaged, single round
With: 150 mM KCl
Reference: input library
Reading: higher = stronger binding
Quantity: 6-mer enrichment (R)
CGGCCA: 0.902
CCUUGG: 0.95
AACAGC: 0.7
GUUUAU: 0.677
UCCUCC: 0.563
CCCAUA: 0.623
GAGCAC: 0.919
CCCCCA: 0.692
CCAGCC: 0.692
UAUCGU: 0.6
CGAAAC: 0.617
UGGUAG: 1.38
GAACUA: 0.685
AGUCCA: 0.63
CGAGGU: 1.4
UGCAAU: 0.656
UCCUGC: 0.608
GGCCUC: 0.919
CAACUU: 0.589
GUCGAG: 1.49
AUGAAU: 0.881
CUUGCG: 0.875
GGAGUG: 3.47
GAGAGC: 1.41

Sample 6
Target: RING finger protein unkempt homolog, zinc fingers 1-6, GST-SBP tag (UNK, Homo sapiens, UniProt Q9C0B0, residues 30-357)
Method: RNA Bind-n-Seq
Molecule type: RNA
Matrix: in vitro
Concentration: not given
Setting: RNA with constant flanks, human and mouse sites, ends assumed
Reference: input RNA pool
Reading: higher = stronger binding
Quantity: bound/input enrichment
All sequences stand within: GGGAGUUCUACAGUCCGACGAUC … CAACAGAGGAUUGAGCAUCA
Construct (chain): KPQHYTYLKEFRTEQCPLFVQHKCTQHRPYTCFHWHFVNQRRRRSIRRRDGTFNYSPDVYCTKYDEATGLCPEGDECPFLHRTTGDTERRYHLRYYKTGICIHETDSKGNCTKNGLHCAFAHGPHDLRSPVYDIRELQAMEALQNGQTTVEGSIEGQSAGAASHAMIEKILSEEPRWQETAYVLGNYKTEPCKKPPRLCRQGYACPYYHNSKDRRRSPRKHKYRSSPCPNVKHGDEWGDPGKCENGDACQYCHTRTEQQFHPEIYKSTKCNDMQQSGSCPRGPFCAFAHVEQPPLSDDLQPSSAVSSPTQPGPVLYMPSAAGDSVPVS
AGAUACUUGCAAAAUAGAUCUCGAAUUCAGGUGUGGCUGUAUGAACAAGUGAAUAUGCGGAUAGAAGGUUGUAUUAUUGGCUUUGAUGAGUACAUGAACCUCGUAUUAGAUGAUGCAGAA: 0.726 ratio
CGGGAAUUCAUGAUCAAAACCCGCCGUAGGAAGGGCCUCAGUGAAGAUGUGAGCAUCAGCAAAUUCUUCGAUGAUCCUAUGUUGCUGGAACUUGCCAAACAGGAUGUUGUGCUCAAUUAC: 0.172 ratio
GUAGAAUCCUGUCGAGGAAAAAAUCUUUUUUUUUCUACCAAUAUUGAUGAUGCCAUCAAAGAAGCUGAUCUUGUAUUUAUUUCUGUGAAUACUCCAACAAAAACCUAUGGAAUGGGGAAA: 0.168 ratio
GCCUCCGAGGACGGCCGCUGCAUCCGUGAGAUCCCUGACCCUGAUGGCGCCGAAUUGCUCUGCUGCACCUUCCAGCCAGUCAACAACAACCUCACUGUGGUGGGGAACGCCAAGCACAAC: 0.0932 ratio
AAUAAGGAAAAGUAUGGCAAACCAAAUAAAAGAAAAGGUUUUAAUGAAGGUUUAUGGGAGAUAGAUAACAAUCCAAAAGUGAAAUUUUCAAGUCAACAGGCAGCAACUAAACAAUCAAAU: 0.695 ratio
GCAAAUUUUGCCAGGAACGAUGGAAAUUGUAUUCAUAUGGUAGACAAUGGGAUUGUAGAAAAACUCAUGGAUUUGCUGGACAGACACGUAGAAGACGGGAACGUGACGGUGCAGCACGCC: 0.317 ratio
UGAGCGUCGGCGCCGGGGUUCGGUGGCCUCUAGUGAGAUCUGGAGGAUCCAAGGAUUCUGUAGCUACAAUGUUGUCAAGACUUUUUCGAAUGCAUGGCCUCUUUGUGGCCUCCCAUCCCU: 0.275 ratio
AAGACUGUCGACCUAAAGCCUGACUGGGGCAAGGGCUAUUCACGAAAAGCAGCAGCUCUAGAGUUCUUAAACCGCUUUGAAGAAGCCAAGCGAACCUAUGAGGAGGGCUUAAAACACGAG: 0.13 ratio
CCACCUCUAGCUUUCUUCCUACCCCAUUCCCGGCUUCCCUCCUCCUCCCCUGCAGCCUGGUUAGGUGGAUACCUGCCCUGACAUGUGAGGCAAGCUAAGGCCUGGAGGGUCAGAUGGGAG: 0.324 ratio
CCAGCAGAGAAGAAAUCGGGAGCACAAGUUCACCCCGAAGGGGUUGAACUCAAAGUAAAGAAUUUGGAGGCAGUACAGACAGACUUCAGCAAUGAACCGCUGCAGAAAGUUGUGUGCUUC: 0.196 ratio
UAUGUAGAAGAUUUAGAUACUAAGCCUCAAGAGACGUCUUUCCUCUCAUUUACGGUCUUCCUGCAUAUUUAAAAUUUCUAAUACGGUAGACAGAGUCGGUGUCUUUGAAGCUGUUAAUCA: 1.32 ratio

Excerpt of the above (sample 5):
CCUUGG: 0.95
AACAGC: 0.7
GUUUAU: 0.677
UCCUCC: 0.563
CCCAUA: 0.623
GAGCAC: 0.919
CCCCCA: 0.692
CCAGCC: 0.692
UAUCGU: 0.6
CGAAAC: 0.617
